# Published values gathered from unrelated publications.
# Lines come from different studies, so protocols differ.
# Organism: Enterococcus faecium
SMILES,technique,strain,setting,added,direction,MIC
CC(=O)NC[C@H]1CN(c2ccc(N3CCOCC3)c(F)c2)C(=O)O1,,NR-32094,,,,1.48 µM
FC(F)(F)Oc1ccc(OCCn2c(CNCC34CC5CC(CC(C5)C3)C4)nc3ccccc32)cc1,,ATCC 19434,,,,> 128 µg/mL
CN[C@H](CC(C)C)C(=O)N[C@H]1C(=O)N[C@@H](CC(N)=O)C(=O)N[C@H]2C(=O)N[C@H]3C(=O)N[C@H](C(=O)N[C@H](C(=O)O)c4cc(O)cc(O)c4-c4cc3ccc4O)[C@H](O)c3ccc(c(Cl)c3)Oc3cc2cc(c3O[C@@H]2O[C@H](CO)[C@@H](O)[C@H](O)[C@H]2O[C@H]2C[C@](C)(N)[C@H](O)[C@H](C)O2)Oc2ccc(cc2Cl)[C@H]1O,,Enterococcus faecalis,40 strains,,,0.68 µg/mL
O=C(O)c1cn(C2CC2)c2cc(N3CCNCC3)c(F)cc2c1=O,broth microdilution,,,,,0.125 µg/mL
CC1(C)S[C@@H]2[C@H](NC(=O)[C@H](N)c3ccccc3)C(=O)N2[C@H]1C(=O)O,broth microdilution,35682,,,,> 64 µg/mL
CCCCN(C(=O)Nc1cc(-c2ccc(Cl)c(Cl)c2)sc1C(=O)O)c1ccccc1,,DSM 20477,,folic acid 10 µg/mL,,16 µM
C/C=C(\C)c1cc(O)c(C)c(OC(=O)c2c(C)cc(O)c(Cl)c2O)c1,broth microdilution,36235,,,,16 µg/mL
Cc1ccc(CCC(=O)Nc2nnc(S(N)(=O)=O)s2)cc1,,ATCC 700221,,,,0.184 µM
C/C=C(\C)c1cc(OC(=O)c2c(O)c(C)c(O)c(Cl)c2/C(C)=C/C)c(C)c(O)c1C(=O)O,broth microdilution,36711,,,,32 µg/mL
CCCCCCC#Cc1cncc(-c2nnc(SCc3ccc([N+](=O)[O-])o3)n2C)c1,,vancomycin-resistant,,,no activity at value,≥ 20 µg/mL
CC(=O)NC[C@H]1CN(c2ccc(N3CCOCC3)c(F)c2)C(=O)O1,,"-30, vancomycin-intermediate",,,,4 µg/mL
CCCCCCC#Cc1cncc(-c2nnc(SCc3ccc([N+](=O)[O-])o3)n2C2CC2)c1,,vancomycin-resistant,,,no activity at value,≥ 20 µg/mL
CN[C@H](CC(C)C)C(=O)N[C@H]1C(=O)N[C@@H](CC(N)=O)C(=O)N[C@H]2C(=O)N[C@H]3C(=O)N[C@H](C(=O)N[C@H](C(=O)O)c4cc(O)cc(O)c4-c4cc3ccc4O)[C@H](O)c3ccc(c(Cl)c3)Oc3cc2cc(c3O[C@@H]2O[C@H](CO)[C@@H](O)[C@H](O)[C@H]2O[C@H]2C[C@](C)(N)[C@H](O)[C@H](C)O2)Oc2ccc(cc2Cl)[C@H]1O,broth microdilution,35682,,,,> 64 µg/mL
CN[C@H](CC(C)C)C(=O)N[C@H]1C(=O)N[C@@H](CC(N)=O)C(=O)N[C@H]2C(=O)N[C@H]3C(=O)N[C@H](C(=O)N[C@H](C(=O)O)c4cc(O)cc(O)c4-c4cc3ccc4O)[C@H](O)c3ccc(c(Cl)c3)Oc3cc2cc(c3O[C@@H]2O[C@H](CO)[C@@H](O)[C@H](O)[C@H]2O[C@H]2C[C@](C)(N)[C@H](O)[C@H](C)O2)Oc2ccc(cc2Cl)[C@H]1O,,ATCC 6569,,,,1 µM
c1ccc2[nH]c(CNCC34CC5CC(CC(C5)C3)C4)nc2c1,,ATCC 19434,,,,128 µg/mL

# A few entries again:
SMILES,technique,strain,setting,added,direction,MIC
C/C=C(\C)c1cc(O)c(C)c(OC(=O)c2c(C)cc(O)c(Cl)c2O)c1,broth microdilution,36235,,,,16 µg/mL
